Assay results collected from several papers.
Compare with care: the assays were run in different laboratories. Several values in a cell are separate wells, animals, samples, runs or records. ± gives the spread as reported.

CC(C)CCCCCCCCC[C@@H]1CC(=O)N[C@@H](CCC(=O)O)C(=O)N[C@@H](CC(C)C)C(=O)N[C@H](CC(C)C)C(=O)N[C@@H](C(C)C)C(=O)N[C@@H](CC(=O)O)C(=O)N[C@H](CC(C)C)C(=O)N[C@@H](CC(C)C)C(=O)O1  maximum fusion (calcein leakage; DOPC/DOPG/CHOL liposomes; concentration not given, with: 20 wt% PEG-8000): 63 ± 12%
Cn1cnc(CCN)c1  z-scored log2 fold change (binding, equilibrium dialysis LC-MS; 5 µM, thermostabilized A2AR-BRIL construct; baseline: no-protein control, direction not given): -0.144
CN1CCN(S(=O)(=O)c2cc([N+](=O)[O-])ccc2N(CCOS(C)(=O)=O)CCOS(C)(=O)=O)CC1  EFS delay (T-C) (NSG mice, sample CI PDX; intraperitoneal, 25 mg/kg weekly x3; baseline: vehicle): > 348 days
NCCc1ccccc1  z-scored log2 fold change (binding, equilibrium dialysis LC-MS; 5 µM, thermostabilized A2AR-BRIL construct; baseline: no-protein control, direction not given): 0.871
CCOC(=O)c1ncn2c1CN(C)C(=O)c1cc(F)ccc1-2  minimum effective dose (food-maintained responding; rhesus monkey; intramuscular, acute dependence model, with: midazolam pretreatment 30 min; baseline: midazolam alone): 1 mg/kg
CC[C@H](C)C[C@H](C)CCCCCCCCC(=O)N[C@H]1C[C@@H](O)[C@@H](NCCN)NC(=O)[C@@H]2[C@@H](O)CCN2C(=O)[C@H]([C@H](O)CCN)NC(=O)[C@H]([C@H](O)[C@@H](O)c2ccc(O)cc2)NC(=O)[C@@H]2C[C@@H](O)CN2C(=O)[C@H]([C@@H](C)O)NC1=O  maximum fusion (calcein leakage; DOPC/DOPG/CHOL liposomes; concentration not given, with: 20 wt% PEG-8000): 20 ± 4%
C=CCCCn1c(O)c(N=NC(=O)c2ccccc2)c2ccccc21  response rate (C57BL/6 mice trained on THC; intraperitoneal, 10 mg/kg, THC 5.6 mg/kg discrimination; baseline: vehicle): increased
[131I-].[Na+]  patients requiring second ablation (hyperthyroidism patients; 185 MBq, long-term follow-up): ~14%
[Cl][Ru-]([Cl])([Cl])[Cl].[Na+].c1ccc2[nH]ncc2c1.c1ccc2[nH]ncc2c1  maximum change in target lesions (CT, RECIST 1.1; human; 780 mg/m2; baseline: baseline): 6.7%
CC(C)C1CCC(N2CCC(N3C(=O)/C(=N\O)c4ccccc43)CC2)CC1 (centres unmarked)  urine flow rate (conscious Sprague-Dawley rat; intravenous bolus, 100 nmol/kg): increased
CCCCC1(CCCC)CN(c2ccccc2)c2cc(SC)c(OCC(=O)N[C@@H](C(=O)NCC(=O)O)c3ccccc3)cc2S(=O)(=O)C1  serum LDL-C (measured: LDL cholesterol; human, serum; 2.5 mg once daily, day 1): 106 mg/dL
C=CC(=O)Nc1cc(Nc2ncc(Cl)c(Nc3ccccc3C(=O)C(=O)N(C)C)n2)c(OC)cc1N1CCN(C)CC1  patients with stable disease (RECIST v1.1 best response; human EGFR T790M NSCLC; oral, 100 mg/day, per-protocol set): 0%
CC[C@H](C)[C@@H]1NC(=O)[C@@H]2CCCN2C(=O)[C@H](CC(C)C)NC(=O)[C@H](CC(C)C)NC(=O)CNC(=O)[C@@H](NC(=O)[C@@H](NC(=O)[C@H](CC(=O)O)NC(=O)CNC(=O)[C@@H](NC(=O)[C@H](C)NC(=O)CNC(=O)[C@H](CCCCN)NC(=O)[C@H](CC(C)C)NC(=O)[C@H](CC(C)C)NC(=O)[C@H](CCCCN)NC(=O)CNC(=O)[C@@H](NC(=O)[C@@H](N)CC(C)C)C(C)C)C(C)C)C(C)C)CSSC[C@@H](C(=O)O)NC1=O  log2 fold change (RNA-seq, measured: Plk3; mouse, traumatic brain injury model, frontal cortex and hippocampus; dose not given; baseline: TBI alone): -2.27
CCCc1nn(C)c2c(=O)[nH]c(-c3cc(S(=O)(=O)N4CCN(C)CC4)ccc3OCC)nc12  mean serum uric acid (human patients on drug, serum or plasma; dose not given, main analysis, matching 1:5; baseline: off-drug patients, 5.94 mg/dL): 6.84 mg/dL
C[C@]1(CO)Cc2ncn(-c3ccc(C#N)c(Cl)c3)c2C(=O)O1  urinary sodium excretion 0-24 h (Japanese subjects; 80 mg single dose): 132 mmol
Cc1nc(Nc2ccc(CC(=O)O)cc2)nc(Nc2ccc(F)c(C(F)(F)F)c2)c1C  serum total bilirubin (mice, chronic ethanol plus binge; intraperitoneal, 0.3 mg/kg daily, ethanol diet 4 weeks, dosed last two; baseline: vehicle): no effect
CC(=O)c1c(C)c2cnc(Nc3ccc(C4CCN(CCS(C)(=O)=O)CC4)cn3)nc2n(C2CCCC2)c1=O  T/C (mouse SW-620 xenograft; oral, 80 mg/kg twice daily, 20 days): 40%
C[C@H]1O[C@@H](O[C@H]2CC[C@@]3(C)[C@@H](CC[C@]4(C)[C@@H]3C=C[C@]35OC[C@@]6(CCC(C)(C)C[C@H]63)[C@@H](O)C[C@]54C)[C@]2(C)CO)[C@H](O)[C@@H](O[C@@H]2O[C@H](CO)[C@@H](O)[C@H](O)[C@H]2O)[C@H]1O  protein level (Western blot, measured: PGC-1α; mouse, hepatic SIRT1 knockdown (AAV8-TBG), liver; dose not given, high dose, unit not given, with: ethanol; baseline: β-actin): 0.214 and 0.267 and 0.359
Cc1cn(-c2cc(NC(=O)c3ccc(C)c(Nc4nccc(-c5cccnc5)n4)c3)cc(C(F)(F)F)c2)cn1  mean difference in change (measured: NPI score; human; dose not given, 6 months versus baseline, unit not given; baseline: placebo): 0
C=CCNc1c(O)cc2c(O)c1C[C@@H](C)C[C@H](OC)[C@H](O)[C@@H](C)/C=C(\C)[C@H](OC(N)=O)[C@@H](OC)/C=C\C=C(/C)C(=O)N2  overall response rate (RECIST v1.0; human soft tissue sarcoma; dose not given): 6%

A few entries again:
CC[C@H](C)[C@@H]1NC(=O)[C@@H]2CCCN2C(=O)[C@H](CC(C)C)NC(=O)[C@H](CC(C)C)NC(=O)CNC(=O)[C@@H](NC(=O)[C@@H](NC(=O)[C@H](CC(=O)O)NC(=O)CNC(=O)[C@@H](NC(=O)[C@H](C)NC(=O)CNC(=O)[C@H](CCCCN)NC(=O)[C@H](CC(C)C)NC(=O)[C@H](CC(C)C)NC(=O)[C@H](CCCCN)NC(=O)CNC(=O)[C@@H](NC(=O)[C@@H](N)CC(C)C)C(C)C)C(C)C)C(C)C)CSSC[C@@H](C(=O)O)NC1=O  log2 fold change (RNA-seq, measured: Plk3; mouse, traumatic brain injury model, frontal cortex and hippocampus; dose not given; baseline: TBI alone): -2.27
Cn1cnc(CCN)c1  z-scored log2 fold change (binding, equilibrium dialysis LC-MS; 5 µM, thermostabilized A2AR-BRIL construct; baseline: no-protein control, direction not given): -0.144
C[C@]1(CO)Cc2ncn(-c3ccc(C#N)c(Cl)c3)c2C(=O)O1  urinary sodium excretion 0-24 h (Japanese subjects; 80 mg single dose): 132 mmol
